Results collected from several papers.
Protocols differ between the studies behind these lines. Several values in a cell are separate wells, animals, samples, runs or records. ± gives the spread as reported.
KCNT1: Potassium channel subfamily T member 1 (KCNT1, Homo sapiens, UniProt Q5JUK3)
Sequence of UniProt Q5JUK3 (whole entry, looked up): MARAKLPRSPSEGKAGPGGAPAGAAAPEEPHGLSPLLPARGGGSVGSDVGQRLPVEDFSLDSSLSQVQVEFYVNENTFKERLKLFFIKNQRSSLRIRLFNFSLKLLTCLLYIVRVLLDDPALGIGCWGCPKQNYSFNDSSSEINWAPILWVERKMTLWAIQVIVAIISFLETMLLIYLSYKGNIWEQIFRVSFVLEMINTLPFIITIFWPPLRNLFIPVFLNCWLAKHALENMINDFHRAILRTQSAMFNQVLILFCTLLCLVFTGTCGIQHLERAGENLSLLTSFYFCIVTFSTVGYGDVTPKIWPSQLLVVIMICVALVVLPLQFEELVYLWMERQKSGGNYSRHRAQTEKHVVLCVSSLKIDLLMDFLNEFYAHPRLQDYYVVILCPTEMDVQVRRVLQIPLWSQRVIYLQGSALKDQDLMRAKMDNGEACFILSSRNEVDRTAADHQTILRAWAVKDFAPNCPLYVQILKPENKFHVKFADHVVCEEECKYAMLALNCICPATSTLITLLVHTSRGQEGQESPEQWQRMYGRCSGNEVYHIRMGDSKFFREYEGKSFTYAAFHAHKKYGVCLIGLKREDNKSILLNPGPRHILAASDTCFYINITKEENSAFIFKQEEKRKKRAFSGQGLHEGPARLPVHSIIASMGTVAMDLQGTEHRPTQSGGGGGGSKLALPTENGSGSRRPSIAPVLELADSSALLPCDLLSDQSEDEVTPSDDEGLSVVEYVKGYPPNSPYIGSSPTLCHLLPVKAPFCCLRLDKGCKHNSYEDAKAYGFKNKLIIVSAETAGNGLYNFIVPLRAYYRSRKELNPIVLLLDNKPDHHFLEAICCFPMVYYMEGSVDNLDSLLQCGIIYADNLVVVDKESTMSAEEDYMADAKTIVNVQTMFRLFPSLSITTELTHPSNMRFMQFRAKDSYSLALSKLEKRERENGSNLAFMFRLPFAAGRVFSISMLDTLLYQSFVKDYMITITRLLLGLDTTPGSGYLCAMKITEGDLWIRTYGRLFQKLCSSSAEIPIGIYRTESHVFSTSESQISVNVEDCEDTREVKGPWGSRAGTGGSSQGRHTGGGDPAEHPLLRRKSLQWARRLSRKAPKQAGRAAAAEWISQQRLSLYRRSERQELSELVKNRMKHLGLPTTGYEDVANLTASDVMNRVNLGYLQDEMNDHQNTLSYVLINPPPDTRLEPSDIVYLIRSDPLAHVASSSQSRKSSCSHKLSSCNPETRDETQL
YAP1 WW2 domain: Transcriptional coactivator YAP1, WW2 domain (YAP1, Homo sapiens, UniProt P46937)
CFTR del508-508: Cystic fibrosis transmembrane conductance regulator (CFTR, Homo sapiens, UniProt P13569, del508-508)
Kelch domain-containing protein 2: Kelch domain-containing protein 2 (UniProt Q9Y2U9)
Sequence of UniProt Q9Y2U9 (whole entry, looked up): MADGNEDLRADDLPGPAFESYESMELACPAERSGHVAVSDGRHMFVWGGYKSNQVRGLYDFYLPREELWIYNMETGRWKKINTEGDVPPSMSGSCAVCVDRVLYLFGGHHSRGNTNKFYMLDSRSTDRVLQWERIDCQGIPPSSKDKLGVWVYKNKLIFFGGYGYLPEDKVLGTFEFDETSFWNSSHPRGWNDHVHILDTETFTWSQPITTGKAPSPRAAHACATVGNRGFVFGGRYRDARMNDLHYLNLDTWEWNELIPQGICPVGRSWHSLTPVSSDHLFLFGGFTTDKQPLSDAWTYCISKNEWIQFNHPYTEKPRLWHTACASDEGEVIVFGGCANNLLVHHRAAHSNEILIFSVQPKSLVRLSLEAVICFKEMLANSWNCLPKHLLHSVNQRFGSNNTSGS
T1: miR-21 precursor (Homo sapiens); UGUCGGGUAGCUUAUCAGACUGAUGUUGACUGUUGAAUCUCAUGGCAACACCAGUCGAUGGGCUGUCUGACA
Sequence of UniProt M0RCI4 (whole entry, looked up): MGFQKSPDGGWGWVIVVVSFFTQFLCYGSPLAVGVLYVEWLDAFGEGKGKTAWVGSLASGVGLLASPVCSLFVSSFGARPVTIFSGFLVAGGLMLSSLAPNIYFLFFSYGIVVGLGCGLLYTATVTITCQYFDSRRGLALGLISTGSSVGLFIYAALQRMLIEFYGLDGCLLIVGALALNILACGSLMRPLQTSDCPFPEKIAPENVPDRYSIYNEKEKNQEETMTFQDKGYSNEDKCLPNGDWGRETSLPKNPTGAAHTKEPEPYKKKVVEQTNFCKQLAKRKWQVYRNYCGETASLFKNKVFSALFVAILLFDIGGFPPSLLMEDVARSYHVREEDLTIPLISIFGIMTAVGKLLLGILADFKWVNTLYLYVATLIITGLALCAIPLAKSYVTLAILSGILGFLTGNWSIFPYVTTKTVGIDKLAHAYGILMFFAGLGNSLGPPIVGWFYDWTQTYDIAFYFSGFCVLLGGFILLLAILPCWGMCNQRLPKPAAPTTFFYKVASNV
Sequence of UniProt Q9NZ08 (whole entry, unmodified, looked up): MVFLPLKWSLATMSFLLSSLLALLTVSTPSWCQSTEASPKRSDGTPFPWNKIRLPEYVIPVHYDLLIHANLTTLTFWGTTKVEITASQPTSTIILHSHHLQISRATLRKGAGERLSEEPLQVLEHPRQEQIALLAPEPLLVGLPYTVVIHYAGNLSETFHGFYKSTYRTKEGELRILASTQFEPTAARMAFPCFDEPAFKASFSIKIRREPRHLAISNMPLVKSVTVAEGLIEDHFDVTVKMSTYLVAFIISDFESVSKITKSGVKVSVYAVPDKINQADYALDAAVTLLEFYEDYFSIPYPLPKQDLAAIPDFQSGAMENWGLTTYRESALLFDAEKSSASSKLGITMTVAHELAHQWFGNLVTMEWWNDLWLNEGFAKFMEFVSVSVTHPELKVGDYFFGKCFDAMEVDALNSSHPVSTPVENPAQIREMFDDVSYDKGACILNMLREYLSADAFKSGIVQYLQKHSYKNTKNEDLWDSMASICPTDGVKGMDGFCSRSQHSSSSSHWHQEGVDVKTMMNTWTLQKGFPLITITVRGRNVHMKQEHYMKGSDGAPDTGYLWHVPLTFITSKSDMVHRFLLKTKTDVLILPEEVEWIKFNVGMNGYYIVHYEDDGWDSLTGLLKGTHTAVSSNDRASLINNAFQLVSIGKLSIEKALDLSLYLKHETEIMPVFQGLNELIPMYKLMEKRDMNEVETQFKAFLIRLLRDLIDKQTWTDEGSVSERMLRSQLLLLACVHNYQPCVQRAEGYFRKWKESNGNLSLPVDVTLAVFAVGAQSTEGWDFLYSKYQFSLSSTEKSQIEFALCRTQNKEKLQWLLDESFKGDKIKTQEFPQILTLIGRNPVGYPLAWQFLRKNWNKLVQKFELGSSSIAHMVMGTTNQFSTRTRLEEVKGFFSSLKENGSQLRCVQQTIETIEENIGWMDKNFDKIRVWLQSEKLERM
Sequence of UniProt P24612 (whole entry, unmodified, looked up): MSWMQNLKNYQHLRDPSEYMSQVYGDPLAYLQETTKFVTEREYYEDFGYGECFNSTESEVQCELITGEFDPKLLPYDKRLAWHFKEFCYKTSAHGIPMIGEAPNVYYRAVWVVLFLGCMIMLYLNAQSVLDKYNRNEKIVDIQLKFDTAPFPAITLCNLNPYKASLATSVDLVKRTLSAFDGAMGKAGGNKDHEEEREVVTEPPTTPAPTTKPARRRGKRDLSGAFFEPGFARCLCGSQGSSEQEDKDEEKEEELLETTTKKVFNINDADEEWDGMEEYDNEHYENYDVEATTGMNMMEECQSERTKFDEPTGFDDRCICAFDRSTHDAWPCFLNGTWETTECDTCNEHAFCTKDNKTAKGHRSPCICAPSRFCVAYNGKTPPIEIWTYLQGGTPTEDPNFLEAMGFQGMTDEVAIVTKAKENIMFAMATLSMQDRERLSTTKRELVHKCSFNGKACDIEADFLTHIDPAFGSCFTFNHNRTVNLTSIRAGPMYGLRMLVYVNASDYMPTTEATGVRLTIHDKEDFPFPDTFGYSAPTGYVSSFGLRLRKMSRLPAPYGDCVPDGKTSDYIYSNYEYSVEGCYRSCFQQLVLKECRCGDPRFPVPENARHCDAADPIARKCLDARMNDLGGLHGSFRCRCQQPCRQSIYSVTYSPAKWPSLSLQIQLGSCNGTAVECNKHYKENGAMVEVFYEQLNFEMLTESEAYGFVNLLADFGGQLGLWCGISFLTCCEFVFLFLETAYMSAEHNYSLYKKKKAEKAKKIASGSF
Sequence of UniProt Q8HZR1 (whole entry, looked up): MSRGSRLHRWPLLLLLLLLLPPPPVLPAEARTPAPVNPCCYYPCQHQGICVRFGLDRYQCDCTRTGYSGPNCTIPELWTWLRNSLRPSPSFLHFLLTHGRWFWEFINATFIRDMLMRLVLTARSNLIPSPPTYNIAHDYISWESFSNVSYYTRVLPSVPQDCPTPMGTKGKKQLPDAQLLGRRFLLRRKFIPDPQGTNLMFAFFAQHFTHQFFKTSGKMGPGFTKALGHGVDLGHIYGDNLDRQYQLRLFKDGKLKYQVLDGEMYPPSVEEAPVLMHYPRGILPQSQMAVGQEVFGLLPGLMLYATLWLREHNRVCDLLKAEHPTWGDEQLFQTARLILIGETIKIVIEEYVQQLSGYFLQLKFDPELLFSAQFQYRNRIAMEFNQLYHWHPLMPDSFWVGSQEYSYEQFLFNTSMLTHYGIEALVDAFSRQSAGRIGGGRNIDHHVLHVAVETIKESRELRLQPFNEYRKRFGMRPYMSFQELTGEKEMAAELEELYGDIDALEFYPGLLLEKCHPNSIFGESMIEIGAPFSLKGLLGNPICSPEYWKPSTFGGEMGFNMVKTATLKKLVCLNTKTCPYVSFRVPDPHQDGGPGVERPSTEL

| Molecule | target | assay | test system | conditions | how to read | measurement | result |
| --- | --- | --- | --- | --- | --- | --- | --- |
| CCOc1ccccc1C(C)N1CC(c2nc(-c3ccsc3)no2)C1 (centres unmarked) | KCNT1 | Tl+ flux, activator | HEK293 expressing KCNT1 | 30 µM | baseline: loxapine maximum response | efficacy | < 10% |
| CC(C)[C@H](NC(=O)[C@@H](N)[C@@H](C)O)C(=O)N[C@@H](C)C(=O)N1CCC[C@H]1C(=O)N1CCC[C@H]1C(=O)N1CCC[C@H]1C(=O)N1CCC[C@H]1C(=O)N[C@@H](Cc1ccc(O)cc1)C(=O)N[C@@H](CCCNC(=N)N)C(=O)N[C@@H](Cc1c[nH]cn1)C(=O)N[C@@H](CCCNC(=N)N)C(=O)N[C@@H](CC(N)=O)C(=O)O | YAP1 WW2 domain | binding, ITC |  | pH 7.0, 25 °C, WW2 domain |  | ΔH | -13.1 ± 0.21 kcal/mol |
| CCN(CC)c1ccc2c(C)c(CCN3C(=O)NC4(CCN(c5nccn6ccnc56)CC4)C3=O)c(=O)oc2c1 | human WIL-FL light chain dimer | proteolysis, stabilizer, proteinase K digestion |  | 10 µM, 2 h, 37 °C, 1% DMSO, together with: proteinase K 50 nM | baseline: vehicle | fold protection | > 0.99 |
| C=C(C)[C@@H]1CC=C(C=O)CC1 | cysteine peptide Ac-RFAACAA-COOH | DPRA RapidFire-MS/MS |  | 24 h, pH 7.5, together with: 5.0 µM cysteine peptide |  | maximal peptide depletion | -109% |
| Nc1ncnc2c1ncn2[C@@H]1O[C@H](COP(=O)(O)OP(=O)(O)OP(=O)(O)O)[C@@H](O)[C@H]1O | ATP1A1 (Canis lupus familiaris, UniProt P50997) | binding, ligand dissociation kinetics | dog enzyme | Na+ 45 mM, 4 °C, Et3N+ replacement, total monovalent cation 500 mM, nitrate, preparation A |  | dissociation rate constant | 0.78 ± 0.1 s⁻¹ |
| CN1CCCC2C(c3ccccc3)C(C3=NCCCC3)C(c3ccccc3)CC21 (centres unmarked) | T1, miR-21 precursor (Homo sapiens) | DSF |  | 3 µM, NaCl 0.25 mM |  | melting temperature shift | -14 °C |
| CCOc1ccccc1S(=O)(=O)N1CC(c2nc(-c3ccncc3)no2)C1 | KCNT1 | Tl+ flux, inhibitor | HEK293 expressing KCNT1 | 30 µM |  | activity class | inactive |
| O=C(ON1C(=O)CCC1=O)c1cc(C(F)(F)F)cc(C(F)(F)F)c1 | CD209 antigen (CD209, Homo sapiens, UniProt Q9NNX6) | activator, plate-based HRP |  | 500 µM, overnight, 4 °C or RT | baseline: DMSO control | HRP binding | ≥ 50% |
| N=C(N)NC(=O)c1nc(Cl)c(N)nc1N | Degenerin mec-4 (mec-4, Caenorhabditis elegans, UniProt P24612, A713T) | ion current, two-electrode voltage clamp | Xenopus oocytes coexpressing MEC-2 | 30 µM, -85 mV | baseline: uninjected oocytes, positive inhibition, negative potentiation | current change | 6.71 µA |
| NS(=O)(=O)c1ccc(N2N=C(C(F)(F)F)C[C@@H]2c2ccc(F)cc2F)cc1 | Prostaglandin G/H synthase 1 (Canis lupus familiaris, UniProt Q8HZR1) | TXB2 formation, inhibitor | clotting dog whole blood | 1 h, 37 °C |  | IC80 | > 500 µM |
| COc1ccccc1C(=O)N1CCN(c2nc3cc(C)cc(C)c3cc2C#N)CC1 | CFTR del508-508 | ΔF508-CFTR correction, corrector | FRT | up to 25 µM, 37 °C, together with: forskolin 20 µM + genistein 50 µM |  | EC50 | inactive |
| IINFEKL | ERAP1 (Homo sapiens, UniProt Q9NZ08, I681R) | substrate | peptide | pH 8.0, 27 °C, mutant I681R, together with: L-AMC, peptide activator 100 µM |  | K1/2 of L-AMC | 0.4 ± 0.09 mM |
| CC[C@H](C)[C@H](NC(=O)[C@@H]1CCCN1C(=O)[C@@H]1CCCN1C(=O)[C@@H]1CCCN1C(=O)[C@@H](NC(=O)[C@H](CC(N)=O)NC(=O)[C@@H](N)Cc1ccccc1)[C@@H](C)CC)C(=O)N[C@@H](Cc1ccc(O)cc1)C(=O)N[C@H](C(=O)N[C@@H](CO)C(=O)N[C@@H](CCCNC(=N)N)C(=O)N[C@@H](C)C(=O)O)[C@@H](C)O | YAP1 WW2 domain | binding, ITC |  | pH 7.0, 25 °C, WW2 domain |  | ΔH | -3.9 ± 0.52 kcal/mol |
| YSLAAVVLGLVQSLNRQRQKQLLNE | Calmodulin-1 (Calm1, Rattus norvegicus, UniProt P0DP29) | Ca2+ dissociation, stopped-flow quin-2 fluorescence | peptide | 2 µM, pH 7.4, 22 °C, together with: Ca2+-calmodulin complex |  | koff2 | 1.59 s⁻¹ and 1.6 s⁻¹ |
| O=C(O)/C(O)=C/C=C\F | 4-oxalocrotonate tautomerase (Leptothrix cholodnii, UniProt B1Y2E4) | enzyme activity, covalent irreversible inhibitor |  | 500 µM, 16 h, pH 7.3 |  | remaining activity | 30% |
| O=S(=O)(c1ccc(C(F)(F)F)cc1)N1CC(c2nc(-c3ccsc3)no2)C1 | KCNT1 | Tl+ flux, inhibitor | HEK293 expressing KCNT1 | 30 µM |  | activity class | inactive |

| Molecule | target | assay | test system | conditions | how to read | measurement | result |
| --- | --- | --- | --- | --- | --- | --- | --- |
| IKPAKRMKFKTVCYLLVQLMHCRKMFKA | Calmodulin-1 (Calm1, Rattus norvegicus, UniProt P0DP29, D130A/D94A) | Ca2+ dissociation, stopped-flow quin-2 fluorescence | peptide | 2 µM, pH 7.4, 22 °C, together with: Ca2+-calmodulin complex |  | koff2 | 5.6 s⁻¹ and 5.55 s⁻¹ |
| DEGEVIVFGG | Kelch domain-containing protein 2 | native mass spectrometry | peptide, 200 mM ammonium acetate | 20 µM Kelch domain-containing protein 2, pH 7 | baseline: total Kelch domain-containing protein 2 signal | fraction of protein bound | 1.7% |
| CSCC[C@H](NC(=O)[C@@H]1CCCN1C(=O)[C@@H](NC(=O)[C@H](Cc1ccc(O)cc1)NC(=O)[C@H](C)NC(=O)[C@@H]1CCCN1C(=O)[C@@H]1CCCN1C(=O)[C@@H]1CCCN1C(=O)[C@H](CO)NC(=O)[C@H](Cc1c[nH]cn1)NC(=O)CN)[C@@H](C)O)C(=O)N[C@@H](CO)C(=O)O | YAP1 WW2 domain | binding, ITC |  | pH 7.0, 25 °C, WW2 domain |  | ΔG | -5.38 ± 0.08 kcal/mol |
| COc1ccc([N+](=O)[O-])cc1Nc1nc2c(s1)CCCCc1nc(NC(=O)C(C)(C)C)sc1-2 | CFTR del508-508 | iodide influx, corrector, YFP halide quenching | FRT cells expressing YFP-H148Q/I152L | 16 to 20 h, 37 °C, genistein 50 µM, together with: forskolin 20 µM |  | Vmax | 243 µM/s |
| CC(C)C[C@H](NC(=O)[C@@H](NC(=O)[C@@H](N)[C@@H](C)O)C(C)C)C(=O)N1CCC[C@H]1C(=O)N1CCC[C@H]1C(=O)N1CCC[C@H]1C(=O)N1CCC[C@H]1C(=O)N[C@@H](Cc1ccc(O)cc1)C(=O)N[C@@H](CCCNC(=N)N)C(=O)N[C@@H](Cc1c[nH]cn1)C(=O)N[C@@H](C)C(=O)N[C@@H](CC(N)=O)C(=O)O | Transcriptional coactivator YAP1, WW1 domain (YAP1, Homo sapiens, UniProt P46937) | binding, ITC |  | pH 7.0, 25 °C, WW1 domain |  | ΔH | -10.3 ± 0.35 kcal/mol |
| Nc1ccc(-c2nc([C@H]3CCc4cc(-c5cc(Cl)ccc5-n5cnnn5)cc(=O)n43)c(F)[nH]2)c(F)n1 | F11 (Homo sapiens, UniProt P03951) | factor XI coagulant activity | human, blood | oral, 80 mg once daily, 14 days, fed |  | maximum inhibition | 75 ± 7.7% |
| Clc1ccccc1SSc1ccccc1Cl | tubulin | colchicine binding, [3H]colchicine binding |  | 5 µM, 10 min, 37 °C, together with: [3H]colchicine 5.0 µM |  | inhibition | 15 ± 5% |
| Cc1cc(C)c2cc(C#N)c(N3CCN(C(=O)c4cccnc4)CC3)nc2c1 | CFTR del508-508 | iodide influx, potentiator | FRT expressing ΔF508-CFTR and YFP | up to 50 µM, low-temperature rescued, together with: forskolin 20 µM |  | EC50 | inactive |
| N[C@@H](Cc1cnc[nH]1)C(=O)O | HARS1 (Homo sapiens, UniProt P12081, Y454S) | thermal stability, DSF |  |  |  | ΔTm | 8.1 °C |
| CCCCCC[N+](CCCCCC)(CCCCCC)CCCCCC | Htr3a (Mus musculus, UniProt P23979) | 5-HT-induced current, inhibitor, two-electrode voltage clamp | Xenopus oocytes |  |  | IC100 | 500 µM |
| Nc1cc(COc2c(Cl)cc(C[C@H](N)C(=O)O)cc2Cl)c2oc(-c3ccccc3)nc2c1 | SLC7A5 (Homo sapiens, UniProt Q01650) | leucine uptake, inhibitor | HEK293 expressing human LAT1 | 20 µM, 30 min, read 24 h after washout, together with: L-[14C]leucine 1 µM | baseline: untreated | remaining activity | ~90% |
| CC(=O)[C@H]1CC[C@H]2[C@@H]3CCC4=CC(=O)CC[C@]4(C)[C@H]3CC[C@]12C | Kcnj13 (Mus musculus, UniProt P86046) | activator, whole-cell patch clamp | HEK293 transfected | 10 µM, pH 7.3 |  | current potentiation | ~5 fold |
| O=C1NC(=O)C(c2ccccc2)(c2ccccc2)N1 | Monocarboxylate transporter 9 (Slc16a9, Rattus norvegicus, UniProt M0RCI4) | substrate, Xenopus oocytes |  | 9.09 µM, 20 °C | baseline: water-injected oocytes | uptake | no effect |
| IAVVQDWGHHRAT (biotinylated) | Complement factor H (CFH, Homo sapiens, UniProt P08603) | surface plasmon resonance | peptide | concentration not given, together with: 100 nM factor H |  | binding | no binding |
| ACASDEGEVIVFGG | Kelch domain-containing protein 2 | native mass spectrometry | peptide, 200 mM ammonium acetate | 20 µM Kelch domain-containing protein 2, pH 7 | baseline: total Kelch domain-containing protein 2 signal | fraction of protein bound | 0.3% |
| CC[C@H](C)[C@H](NC(=O)[C@H](CC(N)=O)NC(=O)[C@H](Cc1c[nH]cn1)NC(=O)[C@@H](NC(=O)[C@H](CCC(N)=O)NC(=O)[C@H](CCCNC(=N)N)NC(=O)[C@@H](NC(=O)[C@@H](N)CCC(=O)O)[C@@H](C)CC)[C@@H](C)O)C(=O)N[C@@H](Cc1ccccc1)C(=O)N[C@@H](Cc1ccccc1)C(=O)N[C@@H](CC(N)=O)C(=O)N[C@@H](Cc1ccccc1)C(=O)N[C@@H](Cc1ccccc1)C(=O)N[C@@H](CCCCN)C(=O)N[C@@H](CCCNC(=N)N)C(=O)N[C@@H](CCCNC(=N)N)C(=O)O | histidine kinase ComD (Streptococcus pneumoniae serotype 4, UniProt A0A0H2US84) | reporter gene, agonist | Streptococcus pneumoniae, TIGR4 pcomX::lacZ | 10 µM | baseline: native CSP2 | ComD2 activation | > 75% |

Repeated from above:
| Molecule | target | assay | test system | conditions | how to read | measurement | result |
| --- | --- | --- | --- | --- | --- | --- | --- |
| N[C@@H](Cc1cnc[nH]1)C(=O)O | HARS1 (Homo sapiens, UniProt P12081, Y454S) | thermal stability, DSF |  |  |  | ΔTm | 8.1 °C |
| CCCCCC[N+](CCCCCC)(CCCCCC)CCCCCC | Htr3a (Mus musculus, UniProt P23979) | 5-HT-induced current, inhibitor, two-electrode voltage clamp | Xenopus oocytes |  |  | IC100 | 500 µM |
| Nc1cc(COc2c(Cl)cc(C[C@H](N)C(=O)O)cc2Cl)c2oc(-c3ccccc3)nc2c1 | SLC7A5 (Homo sapiens, UniProt Q01650) | leucine uptake, inhibitor | HEK293 expressing human LAT1 | 20 µM, 30 min, read 24 h after washout, together with: L-[14C]leucine 1 µM | baseline: untreated | remaining activity | ~90% |
